Literature values as cited in several papers.
Lines come from different studies, so protocols differ. “And” joins repeats or separate records; there may be more than shown. ± gives the spread as reported. ≈ marks a conversion by molar mass, not a printed value.

The chains behind the UniProt entries cited, without tags or fusion partners. Residues count along the entry.
UniProt Q8WUI4, whole entry: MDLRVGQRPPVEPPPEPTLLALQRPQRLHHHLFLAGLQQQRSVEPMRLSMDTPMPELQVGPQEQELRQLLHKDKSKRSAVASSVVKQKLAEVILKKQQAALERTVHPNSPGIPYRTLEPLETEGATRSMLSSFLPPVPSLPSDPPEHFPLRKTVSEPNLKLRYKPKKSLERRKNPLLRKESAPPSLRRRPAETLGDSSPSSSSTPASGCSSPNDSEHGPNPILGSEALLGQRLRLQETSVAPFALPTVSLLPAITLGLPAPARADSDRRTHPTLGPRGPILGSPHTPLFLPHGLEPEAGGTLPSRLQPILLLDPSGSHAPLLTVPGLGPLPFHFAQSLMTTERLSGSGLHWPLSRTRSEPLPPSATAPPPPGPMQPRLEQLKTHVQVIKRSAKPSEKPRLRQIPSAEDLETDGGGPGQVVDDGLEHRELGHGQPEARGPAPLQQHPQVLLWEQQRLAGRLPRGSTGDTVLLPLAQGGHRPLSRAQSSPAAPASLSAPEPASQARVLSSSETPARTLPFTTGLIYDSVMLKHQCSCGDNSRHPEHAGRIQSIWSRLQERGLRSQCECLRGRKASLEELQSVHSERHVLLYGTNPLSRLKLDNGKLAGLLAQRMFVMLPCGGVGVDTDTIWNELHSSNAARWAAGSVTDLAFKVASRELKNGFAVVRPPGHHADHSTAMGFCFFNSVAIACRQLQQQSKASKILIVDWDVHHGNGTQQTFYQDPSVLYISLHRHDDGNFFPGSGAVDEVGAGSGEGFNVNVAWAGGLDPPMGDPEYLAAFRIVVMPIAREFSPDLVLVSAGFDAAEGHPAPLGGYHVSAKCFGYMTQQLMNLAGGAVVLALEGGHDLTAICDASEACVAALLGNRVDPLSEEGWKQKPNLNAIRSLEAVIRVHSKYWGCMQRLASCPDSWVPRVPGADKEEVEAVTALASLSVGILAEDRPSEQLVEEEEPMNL
UniProt Q62645, 28-1323 limits assumed: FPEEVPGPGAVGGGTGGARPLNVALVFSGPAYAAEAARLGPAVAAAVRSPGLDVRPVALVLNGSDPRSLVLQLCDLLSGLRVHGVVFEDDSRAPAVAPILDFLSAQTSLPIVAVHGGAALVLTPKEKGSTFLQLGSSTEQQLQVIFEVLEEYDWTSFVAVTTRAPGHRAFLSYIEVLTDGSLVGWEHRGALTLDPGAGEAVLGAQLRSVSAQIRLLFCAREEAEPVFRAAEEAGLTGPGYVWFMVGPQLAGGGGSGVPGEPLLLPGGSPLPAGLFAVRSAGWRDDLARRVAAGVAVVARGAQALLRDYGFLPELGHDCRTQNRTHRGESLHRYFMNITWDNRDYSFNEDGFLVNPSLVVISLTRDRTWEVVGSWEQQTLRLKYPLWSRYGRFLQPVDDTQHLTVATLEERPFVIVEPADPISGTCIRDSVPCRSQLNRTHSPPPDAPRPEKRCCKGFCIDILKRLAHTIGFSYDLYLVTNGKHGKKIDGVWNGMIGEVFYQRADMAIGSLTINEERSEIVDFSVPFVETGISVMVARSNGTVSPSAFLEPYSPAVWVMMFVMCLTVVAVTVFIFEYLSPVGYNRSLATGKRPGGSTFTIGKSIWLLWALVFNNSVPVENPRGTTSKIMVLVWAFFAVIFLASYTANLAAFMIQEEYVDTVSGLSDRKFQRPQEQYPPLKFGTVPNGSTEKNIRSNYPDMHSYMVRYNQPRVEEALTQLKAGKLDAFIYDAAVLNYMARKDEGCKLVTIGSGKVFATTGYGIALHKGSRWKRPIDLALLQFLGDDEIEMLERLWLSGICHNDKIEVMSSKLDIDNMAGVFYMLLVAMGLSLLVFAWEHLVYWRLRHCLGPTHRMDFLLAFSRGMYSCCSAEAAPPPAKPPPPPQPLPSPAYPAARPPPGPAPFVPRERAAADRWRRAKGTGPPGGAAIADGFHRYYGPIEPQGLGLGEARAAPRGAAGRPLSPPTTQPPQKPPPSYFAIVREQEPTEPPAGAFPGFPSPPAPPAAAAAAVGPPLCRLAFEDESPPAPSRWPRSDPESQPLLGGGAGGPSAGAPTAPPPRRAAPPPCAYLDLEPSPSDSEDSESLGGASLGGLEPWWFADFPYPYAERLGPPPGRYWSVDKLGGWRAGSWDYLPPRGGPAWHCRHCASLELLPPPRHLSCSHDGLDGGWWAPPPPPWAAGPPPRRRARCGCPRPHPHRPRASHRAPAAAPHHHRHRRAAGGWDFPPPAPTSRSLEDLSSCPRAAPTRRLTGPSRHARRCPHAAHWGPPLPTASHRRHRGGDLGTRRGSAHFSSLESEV
UniProt P51532, 1453-1564 limits assumed: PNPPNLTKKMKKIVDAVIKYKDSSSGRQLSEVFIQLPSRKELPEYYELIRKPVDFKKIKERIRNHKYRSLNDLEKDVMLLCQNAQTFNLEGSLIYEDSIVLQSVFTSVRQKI

`CC(=O)N[C@@H](CC(C)C)C(=O)NCC(=O)N[C@@H](CCCCNC(=O)C(F)(F)F)C(=O)Nc1ccc2c(C)cc(=O)oc2c1` gave a Km of 19.8 µM (Histone deacetylase 7 (HDAC7, Homo sapiens, UniProt Q8WUI4); substrate).
`CNC1=NC(=O)/C(=C/c2ccc3ncccc3c2)S1` gave an IC50 of 35 µM (CDK4/6; kinase activity, inhibitor).
`COc1ccccc1CNCCCCCCN1CCC(CCC2CCN(CCCCCCNCc3ccccc3OC)CC2)CC1` gave a Ki of > 100000 nM and 111000 nM (human SSAO/VAP-1; inactive as substrate or inhibitor).
For `Nc1ccc(-c2cc(Cl)c(Cl)c3[nH]c4c(c23)CN(C(=O)CO)CC4)cn1`, inhibition read “inactive” (cGAS mouse; concentration not given).
`CC(=O)Nc1ncc(SCc2ncc(C(C)(C)C)o2)s1` has an IC50 of 0.00426 µM (CDK4/6; kinase activity, inhibitor).
With `O=C(O)c1cc([C@H]2CCN[C@@H]2C(=O)O)ccc1Cl` the IC50 was 41 µM (Glutamate receptor ionotropic, NMDA 2D, with GluN1 (Rattus norvegicus, UniProt Q62645); ion current, antagonist, two-electrode voltage clamp; GluN1/GluN2D).
For `CCC[C@@H]([C@@H](CC(C)C)C(=O)N[C@@H](CCCCNC(=O)OCc1ccccc1)C(=O)Nc1nccs1)N(O)C=O`, the IC50 was 0.0115 µM (recombinant ADAM10; enzyme activity, inhibitor).
`Cc1cccc(C2NC(=O)c3c(Cl)cccc3N2)c1` (racemic): binding “no binding” (SMARCA2 bromodomain; DSF and ITC; concentration not given, racemate).
With `C/C=C/Cn1c(Cc2cc(OC)c(OC)c(OC)c2)nc2c(N)ncnc21` the IC50 was 173 ± 7.3 µM (Trap-1; binding, fluorescence polarization competition).
`c1ccc(CCN2CCN(c3cc(N4CCCC4)nc(N4CCCC4)n3)CC2)cc1` gave a Ki of 8 to 16 nM (caspase-4; inhibitor; range shared with caspase-1).
With `CNC(=O)[C@@]12C[C@@H]1[C@@H](n1cnc3c(NCCc4ccc(OC)c(OC)c4)nc(C#Cc4ccc(Cl)s4)nc31)[C@H](O)[C@@H]2O` the aqueous solubility was 3.84 ± 0.52 µg/mL (≈ 6.3 µM) (pION; pH 7.4).
The solubility of `CCC(C)NC(=O)CSc1nnc(Nc2ccc(C(C)C)cc2)s1` (stereo not shown) is reported as 108 µM (≈ 39.4 µg/mL) (FaSSIF).
`CNc1nc(C)c(-c2nc(Nc3ccc(N4CCC(N)CC4)cn3)ncc2F)s1` gave an IC50 of 41.5 µM (CDK4/6; kinase activity, inhibitor).
For `CCC[C@H](O)[C@H](NC[C@@H]1Cc2cccc(c2)CCCCc2cc(cc(N(CCC)S(C)(=O)=O)c2)C(=O)N1)C(=O)NCC(C)C`, the Ki was 7 ± 5 nM (BACE1; enzyme activity, inhibitor, fluorogenic peptide substrate).
`Cc1cc(C)cc(Nc2nccc(-c3c(-c4ccc(F)cc4)ncn3C3CCNCC3)n2)c1` has an inhibition of over 35% (SWI/SNF-related matrix-associated actin-dependent regulator of chromatin subfamily A member 4 (SMARCA4, Homo sapiens, UniProt P51532); concentration not given).
With `c1ccc(C(CCn2ccnc2)(c2ccccc2)c2ccccc2)cc1` the Kd was 13.1 ± 0.9 µM (CYP125 Mycobacterium tuberculosis).
